Measured values collected from several papers.
Numbered parts are unrelated; each lists some results of a single study. “And” joins repeats or separate records; there may be more than shown. Changes are numbered by the printed parent chain.

Sample 1
Target: CCNB3, cyclin fold, Cln2 fusion (human)
Method: yeast growth competition, sequencing
Matrix: yeast
Notes: weak parent motif
Reference: not given
Reading: higher = stronger binding
Starting sequence: viral docking peptide; KKVKRRLFETREL
For `KKVKARAFETREL [R5A L7A]`, “normalised enrichment score” read 0.29.
`KKVKRRLAETREL [F8A]` — result for “normalised enrichment score”: -0.124.
Under “normalised enrichment score”, `KKVARRLFETREL [K4A]` is recorded as 0.0778.
For `KKVKKRLFETREL [R5K]`, “normalised enrichment score” read 0.377.
Under “normalised enrichment score”, `KKVKRRLFETREA [L13A]` is recorded as 0.658.
Under “normalised enrichment score”, `KKVKKRLLETREL [R5K F8L]` is recorded as 0.114.
Under “normalised enrichment score”, `KKVKRALFETREL [R6A]` is recorded as 0.408.
Under “normalised enrichment score”, `KKVKARLFETREL [R5A]` is recorded as 0.165.

Sample 2
Target: tungstate, free oxyanion
Method: microfluidic competitive inhibition
Matrix: in vitro, cell-free expressed
Tested at: not given
Notes: derived from inhibition constants, unchanged parent 2230 nM
Reading: lower = stronger binding
Starting sequence: PafA, mature enzyme, eGFP fusion (Elizabethkingia meningoseptica, UniProt Q9KJX5); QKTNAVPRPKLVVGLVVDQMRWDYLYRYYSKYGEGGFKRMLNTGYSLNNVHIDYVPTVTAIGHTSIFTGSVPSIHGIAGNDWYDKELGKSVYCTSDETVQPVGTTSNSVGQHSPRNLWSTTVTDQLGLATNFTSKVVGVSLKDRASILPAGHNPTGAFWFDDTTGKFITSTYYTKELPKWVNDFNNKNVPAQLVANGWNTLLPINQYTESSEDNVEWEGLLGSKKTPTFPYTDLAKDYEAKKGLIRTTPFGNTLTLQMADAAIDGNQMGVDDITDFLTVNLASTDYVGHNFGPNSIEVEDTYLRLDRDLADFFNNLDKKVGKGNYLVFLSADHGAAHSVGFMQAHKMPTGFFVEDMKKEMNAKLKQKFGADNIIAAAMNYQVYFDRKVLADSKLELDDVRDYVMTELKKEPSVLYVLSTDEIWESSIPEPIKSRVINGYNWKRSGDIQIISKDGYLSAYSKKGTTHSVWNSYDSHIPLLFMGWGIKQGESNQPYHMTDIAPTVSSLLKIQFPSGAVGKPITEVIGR
`R443V`: “oxyanion analog dissociation constant” 2550 nM.
For `R8G`, “oxyanion analog dissociation constant” read 1700 nM.
`L479G` — result for “oxyanion analog dissociation constant”: 2740 nM.
For `D233V`, “oxyanion analog dissociation constant” read 2730 nM.
`S30G` — result for “oxyanion analog dissociation constant”: 2050 nM.
Under “oxyanion analog dissociation constant”, `T405V` is recorded as 2220 nM.
`V102A` — result for “oxyanion analog dissociation constant”: 1640 nM.
`V353A`: “oxyanion analog dissociation constant” 2610 nM.

Mixed results
For `CN(N=O)C(=O)N[C@@H]1[C@@H](O)[C@H](O)[C@@H](CO)O[C@@H]1O`, the body weight was 39 g and 30.4 g and 38 g and 33 g (mice, STZ diabetic neuropathy; dose not given, 7 days after STZ).
The GFP-positive cells of `O=C(O)[C@@H](S)[C@@H](S)C(=O)O` is reported as 112% (HEK-293T; pseudovirus infection, FDA-approved drug library counter-screen; VSV pseudotyped with VSV-G; 10 µM, 16 h; reference: vehicle-treated).

Repeated from above (sample 2):
`R443V`: “oxyanion analog dissociation constant” 2550 nM.
For `D233V`, “oxyanion analog dissociation constant” read 2730 nM.
